Experimental data gathered from unrelated publications.
Protocols differ between the studies behind these lines. Numbers after ± are the reported error.
Sequence of UniProt P08069 (whole entry, looked up): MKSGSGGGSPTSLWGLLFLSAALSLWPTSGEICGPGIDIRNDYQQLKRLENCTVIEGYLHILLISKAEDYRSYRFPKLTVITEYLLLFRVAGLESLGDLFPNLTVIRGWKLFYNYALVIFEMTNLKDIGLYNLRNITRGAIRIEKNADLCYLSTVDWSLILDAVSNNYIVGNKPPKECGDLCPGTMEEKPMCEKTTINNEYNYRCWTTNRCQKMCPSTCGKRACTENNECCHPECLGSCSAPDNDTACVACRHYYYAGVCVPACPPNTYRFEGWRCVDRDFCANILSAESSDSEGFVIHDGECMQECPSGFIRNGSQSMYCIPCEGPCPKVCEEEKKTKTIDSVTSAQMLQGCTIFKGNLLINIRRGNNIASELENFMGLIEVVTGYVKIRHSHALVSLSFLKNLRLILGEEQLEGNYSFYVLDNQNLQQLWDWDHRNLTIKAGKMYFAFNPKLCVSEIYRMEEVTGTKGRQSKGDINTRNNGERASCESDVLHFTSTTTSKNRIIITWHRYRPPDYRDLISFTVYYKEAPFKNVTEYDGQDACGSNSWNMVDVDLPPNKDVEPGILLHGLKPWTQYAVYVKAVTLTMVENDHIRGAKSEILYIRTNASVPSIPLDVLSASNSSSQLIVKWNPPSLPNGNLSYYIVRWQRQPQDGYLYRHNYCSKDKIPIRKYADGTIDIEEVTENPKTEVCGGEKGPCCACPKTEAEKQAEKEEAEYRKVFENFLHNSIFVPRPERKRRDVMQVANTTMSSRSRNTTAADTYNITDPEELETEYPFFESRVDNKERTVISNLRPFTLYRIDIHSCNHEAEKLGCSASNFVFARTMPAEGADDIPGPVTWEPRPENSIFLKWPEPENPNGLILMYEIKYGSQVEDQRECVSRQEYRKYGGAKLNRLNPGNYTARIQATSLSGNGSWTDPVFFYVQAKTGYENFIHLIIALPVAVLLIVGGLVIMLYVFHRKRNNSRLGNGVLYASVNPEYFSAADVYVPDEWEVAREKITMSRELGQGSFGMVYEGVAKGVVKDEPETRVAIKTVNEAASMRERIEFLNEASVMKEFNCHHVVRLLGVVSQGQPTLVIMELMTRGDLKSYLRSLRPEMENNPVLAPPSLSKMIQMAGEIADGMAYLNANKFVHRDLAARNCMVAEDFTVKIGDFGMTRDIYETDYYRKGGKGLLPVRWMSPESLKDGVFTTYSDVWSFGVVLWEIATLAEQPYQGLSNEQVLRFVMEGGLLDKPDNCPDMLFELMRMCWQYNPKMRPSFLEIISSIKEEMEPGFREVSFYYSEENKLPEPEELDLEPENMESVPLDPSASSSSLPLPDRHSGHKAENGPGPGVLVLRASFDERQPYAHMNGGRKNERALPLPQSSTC
Sequence of UniProt P21917 (whole entry, looked up): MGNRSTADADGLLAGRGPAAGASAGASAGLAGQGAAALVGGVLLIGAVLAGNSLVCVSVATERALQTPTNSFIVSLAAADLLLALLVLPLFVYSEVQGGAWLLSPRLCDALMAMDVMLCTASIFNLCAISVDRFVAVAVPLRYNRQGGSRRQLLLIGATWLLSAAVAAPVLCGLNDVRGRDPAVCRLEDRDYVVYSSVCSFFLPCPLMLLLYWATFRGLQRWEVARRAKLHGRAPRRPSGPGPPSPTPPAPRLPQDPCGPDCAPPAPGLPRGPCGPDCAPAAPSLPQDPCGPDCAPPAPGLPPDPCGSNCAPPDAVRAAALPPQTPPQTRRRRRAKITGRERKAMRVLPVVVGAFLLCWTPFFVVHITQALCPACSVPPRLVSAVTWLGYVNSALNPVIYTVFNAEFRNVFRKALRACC

SMILES	target or system	assay	system	conditions	how to read	measurement	result
COC1CN([C@H]2CC[C@H]([C@@]3(C)Oc4c(Cl)cc(C(=O)NCc5c(SC)cc(C)[nH]c5=O)c(C)c4O3)CC2)C1	J82	cell growth or viability, ATP luminescence	–	6 days	–	GI50	> 10000 nM
O=C(C[Se]C(=O)c1cccnc1Nc1cccc(C(F)(F)F)c1)Nc1cccc(C(F)(F)F)c1	NCI60 ovarian subpanel	cell growth, inhibitor	–	five-dose	–	GI50	1820 nM
CN1CCCNC(=O)c2cccc(c2)C(=O)NCCCN(C)CCCNc2cccc3c2C(=O)c2cccc(c2C3=O)NCCC1	SAS	RNA-Seq, item: CLASP2 mRNA	–	1 µM, 6 h	relative to: untreated cells	log2 fold change	-1.41
O=C(Nc1nnc2c1c(-c1ccc(Cl)cc1)nc1sc(=Cc3ccco3)c(=O)n12)c1ccccc1 (mixture of isomers)	SF-268	SRB	–	10 µM, NCI60 single-dose screen	relative to: untreated	cell growth	42.2%
COC1=C2CC(C)CC(OC)C(O)C(C)C=C(C)C(OC(N)=O)C(OC)C=CC=C(C)C(=O)NC(=CC1=O)C2=O (centres unmarked)	Rh30	ChIP-seq, item: H3K36me3 peak	–	concentration not given, GON7 intron chr14:93664800-93696999	relative to: untreated control	log fold change	-0.502
C=C(NC(=O)c1csc(-c2nc3c(cc2O)-c2nc(cs2)C(=O)NC(C(C)O)C(=O)NC(=C(C)OC)c2nc(cs2)C(=O)NC2c4nc(cs4)C(=O)NC(COC(=O)c4c5c6c(cccc6n4O)COC(=O)C(OC4CC(C)(O)C(N(C)C)C(C)O4)C2OC5)c2nc-3cs2)n1)C(N)=O (centres unmarked)	–	–	cynomolgus monkey, both sexes, plasma	intravenous infusion, 3 mg/kg, multiple doses, day 7	–	AUC(0-last)	23400 ± 6190 ng·h/mL
Cc1nc(=S)[nH]c(C)c1/N=N/c1nnc(S)[nH]1	Vero	cell viability, MTT	–	5.0 µg/mL	–	inhibition	21.6 ± 0.272%
Cc1ccc([N+](=O)[O-])cc1S(=O)(=O)N(C)/N=C/c1cnc2ccc(Br)cn12	HuT78	Th1 pathway, NanoString IPA	–	50 nM, 10 h	direction not given	activation z-score	-3.53
Cc1nn(-c2cccc(N)c2)c(=O)c2cnc(Nc3ccc(N4CCNCC4)cc3)nc12	Insulin-like growth factor 1 receptor (IGF1R, Homo sapiens, UniProt P08069)	kinase activity, inhibitor, SelectScreen kinase profiling	–	–	–	IC50	> 10000 nM
COC(=O)c1cc(NC2=NC(=O)C(=Cc3ccc(C)cc3)S2)ccc1OC(C)=O	MCF7	GC-MS, item: Spermidine	–	1 µM	relative to: DMSO	metabolite level	0.11 fold change
O=C(C[Se]C(=O)c1ccc2ccccc2n1)Nc1cccc(C(F)(F)F)c1	NCI60 ovarian subpanel	cell growth	–	10 µM, 48 h, one-dose	–	mean growth percent	-86.8%
CC(C)C[C@@H](NC(=O)[C@@H](CC(C)C)NC(=O)[C@@H](CC(=O)O)NC(=O)[C@@H](CC(C)C)NC(=O)[C@@H](CC(C)C)NC(=O)[C@@H](CC(C)C)NC(=O)[C@H](NC(=O)[C@@H](CC(=O)O)NC(=O)[C@H](NC(=O)[C@H]1CCCN1C(=O)[C@@H](Cc1ccccc1)NC(=O)[C@@H](CC(C)C)NC(=O)[C@@H](CC(C)C)NC(=O)[C@@H](CC(=O)O)NC(=O)[C@@H](CC(C)C)NC(=O)[C@@H](Cc1ccc(O)cc1)NC(=O)[C@@H](C)NC(=O)[C@@H](CCCNC(=N)N)NC(=O)[C@@H](Cc1c[nH]c2ccccc12)NC(=O)[C@H]1CCCN1C(=O)[C@@H](CC(N)=O)NC(=O)[C@@H](CCC(N)=O)NC(=O)[C@@H](CC(=O)O)NC(=O)[C@@H](CC(=O)O)NC(=O)[C@@H](CSC1CC(=O)N(CCNC(=O)CN2CCN(CC(=O)O)CCN(CC(=O)O)CC2)C1=O)NC(=O)[C@@H](C)N)[C@H](C)O)[C@H](C)O)C(=O)N[C@H](Cc1c[nH]c2ccccc12)C(=O)O (some centres unmarked) [fluorine-18 labelled]	–	–	male nude mice, LNCaP xenograft, blood	intravenous, 1 h	–	tissue uptake	20 %ID/g
CC(=O)OC[C@H]1O[C@@H](n2cc(CSc3nc4ccccc4n3Cc3cn([C@@H]4O[C@H](COC(C)=O)[C@@H](OC(C)=O)C(OC(C)=O)[C@H]4OC(C)=O)nn3)nn2)[C@H](OC(C)=O)C(OC(C)=O)[C@@H]1OC(C)=O (stereo in doubt)	HEK293	MTT	–	31.3 ppm	–	cytotoxicity	30.7%
C=CC(=O)Nc1cccc(Cn2ncc3cnc(Nc4cnn(CCOC)c4)nc32)c1	ACVR2B human	binding, KINOMEscan	–	100 nM	lower = stronger binding	percent of control	87%
COc1ccc(CN2CC(COc3ccc(F)c(C)c3)CC(F)(F)C2)cc1F (centres unmarked)	D(4) dopamine receptor (DRD4, Homo sapiens, UniProt P21917)	binding, radioligand displacement	HEK293 cell membranes	Eurofins Discovery, together with: [3H]N-methylspiperone	–	Ki	316 nM
COC(=O)c1cc(NC2=NC(=O)C(=Cc3ccc(N(C)C)cc3)S2)ccc1OC(C)=O	A549	item: CRIP1	–	2.93 µM, 24 h	relative to: DMSO	mRNA level	200 fold change
O=C(C[Se]C(=O)c1ccccc1Nc1cccc(C(F)(F)F)c1)Nc1cccc(C(F)(F)F)c1	NCI60 ovarian subpanel	cell growth, inhibitor	–	five-dose	–	GI50	1890 nM
CN(C)CCN1CCN(c2ccc3nc(-c4ccc5nc(-c6ccc(C(F)(F)F)cc6)[nH]c5c4)[nH]c3c2)CC1	SF-539	SRB	–	10 µM, 48 h	–	growth percent	65.8%
NC1=C(Cl)C(=O)c2ccccc2C1=O	MOLT-3	XTT	–	–	relative to: IC50 MRC-5 over IC50 MOLT-3	selectivity index	2.23
C=C1CC[C@H](OCCCNC(=O)CCOCCOCCOCCOCCOCCOCCOCCOCCOCCOCCOCCOCCOCCOCCOCCOCCOCCOCCOCCOCCOCCOCCOCCOCCOCCOCCOCCOCCOCCOCCOCCOCCOCCOCCOCCOCCNC(=O)CCN2C(=O)CC(SC[C@H](NC(=O)[C@H](Cc3ccccc3)NC(=O)[C@H](CC(N)=O)NC(=O)[C@H](Cc3c[nH]cn3)NC(=O)[C@@H](NC(=O)[C@H](CC(=O)O)NC(=O)[C@H](CCC(N)=O)NC(=O)[C@H](CC(C)C)NC(=O)[C@H](CCCCN)NC(=O)[C@H](CCCCN)NC(=O)[C@H](CCCNC(=N)N)NC(=O)[C@H](CC(C)C)NC(=O)[C@H](Cc3c[nH]c4ccccc34)NC(=O)[C@H](CCC(=O)O)NC(=O)[C@@H](NC(=O)[C@H](CCCNC(=N)N)NC(=O)[C@H](CCC(=O)O)NC(=O)[C@H](CCSC)NC(=O)[C@H](CO)NC(=O)[C@H](CC(N)=O)NC(=O)[C@H](CC(C)C)NC(=O)[C@H](Cc3c[nH]cn3)NC(=O)[C@H](CCCCN)NC(=O)CNC(=O)[C@H](CC(C)C)NC(=O)[C@H](CC(N)=O)NC(=O)[C@H](Cc3c[nH]cn3)NC(=O)[C@H](CCSC)NC(=O)[C@H](CC(C)C)NC(=O)[C@H](CCC(N)=O)NC(=O)[C@@H](NC(=O)[C@H](CCC(=O)O)NC(=O)[C@H](CO)NC(=O)[C@@H](NC(=O)[C@@H](N)CO)C(C)C)[C@@H](C)CC)C(C)C)C(C)C)C(=O)O)C2=O)C/C1=C/C=C1\CCC[C@]2(C)[C@@H]([C@H](C)CCCC(C)(C)O)CC[C@@H]12 (some centres unmarked)	–	–	male Sprague-Dawley rat, plasma	subcutaneous, 300 µg/kg, single dose	–	AUC(0-t)	1270 ng·h/mL
CCCC[C@H](NC(=O)CCCCCCCNC(=O)CN1CCN(CC(=O)O)CCN(CC(=O)O)CC1)C(=O)N[C@H]1CC(=O)NCCCC[C@@H](C(N)=O)NC(=O)[C@H](Cc2c[nH]c3ccccc23)NC(=O)[C@H](CCCNC(=N)N)NC(=O)[C@@H](Cc2ccccc2)NC(=O)[C@H](Cc2c[nH]cn2)NC1=O [technetium-99m labelled]	–	–	C57 mouse, bone	intravenous, 0.037 MBq, 4 h	–	tissue uptake	0.02 %ID/g

SMILES	target or system	assay	system	conditions	how to read	measurement	result
CC[C@H](CO)Nc1nc(NCc2ccc(-c3ccccn3)cc2)c2ncn(C(C)C)c2n1	MOLT-4	TMT mass spectrometry proteomics, item: KDM5B protein	–	1 µM, 1 h	relative to: DMSO	log2 fold change	1.31
CCNc1cc2c(cc1C)C1(c3cc(C)c(NCC)cc3O2)c2ccccc2C(=O)N1N=Cc1c[c-]c(-c2ccccn2)cc1.Cc1c(C)c(-c2ccc(-c3ccccc3)cc2)[c-](C)c1C.[Cl-].[Ir+3]	A549	annexin V/PI flow cytometry	–	2.0×IC50, 24 h	–	early apoptotic cells	5.48 ± 0.62%
O=CCNCCOn1c(=O)n(OCCNCCO)c(=O)n(OCCNCCOn2c(=O)n(OCCNCCO)c(=O)n(OCCNCCO)c2=O)c1=O	A549	cell growth or viability, MTT	–	200 µg/mL, 24 h	–	viability	17.2%
CCCC[C@H](NC(=O)COCCOCCNC(=O)CN1CCN(CC(=O)O)CCN(CC(=O)O)CC1)C(=O)N[C@H]1CC(=O)NCCCC[C@@H](C(N)=O)NC(=O)[C@H](Cc2c[nH]c3ccccc23)NC(=O)[C@H](CCCNC(=N)N)NC(=O)[C@@H](Cc2ccccc2)NC(=O)[C@H](Cc2c[nH]cn2)NC1=O [technetium-99m labelled]	–	–	C57 mouse, intestine	intravenous, 0.037 MBq, 2 h	–	tissue uptake	4.51 ± 0.93 %ID
COc1cc(N2CCOCC2)ccc1Nc1ncc(Cl)c(Nc2ccccc2NS(C)(=O)=O)n1	PC-9 del19/T790M/C797S cells	annexin V/PI staining	–	3 µM, 24 h	–	apoptotic cells	31.4%
Cc1c(Cl)cccc1Nc1ccccc1C(=O)[Se]CC(=O)Nc1cccc(C(F)(F)F)c1	NCI60 non-small-cell lung subpanel	cell growth	–	10 µM, 48 h, one-dose	–	mean growth percent	-86.9%
CCN(C(=O)c1cc(F)ccc1Oc1nncnc1N1CCC2(C1)CN([C@H](CCCN(C)CCOC)C(C)C)C2)C(C)C	IGROV-1	cell growth or viability	–	7 days	–	GI50	> 10000 nM
CCN(CC)CC(=O)Nc1cccc(-n2cc(-c3ccc4ccc(-c5cn(-c6cccc(NC(=O)CN(CC)CC)c6)nn5)cc4c3)nn2)c1	RCC4	PCR angiogenesis array, item: TGFBR1	–	5 x IC50, 2 h, normoxia	relative to: untreated	fold regulation	1.29 fold
Nc1ncc(-c2cc(-c3cnn(CC(F)(F)F)c3)ncc2F)nc1C(=O)NC1CNCC(F)C1 (centres unmarked)	PCTK3	KINOMEscan	–	1 µM	relative to: DMSO control	remaining binding	100%
Cn1ncc2cc(-c3cncc(Cl)c3N3CCC4(CCNC4=O)CC3)ccc21	LS174T	microarray, item: ADA	–	concentration not given, 24 h	relative to: untreated cells	fold change in expression	2.01
CNS(=O)(=O)Nc1nccc(Cc2c(C)c3ccc(Oc4ncccc4F)cc3oc2=O)c1F	JIMT-1	cell viability	–	7 days	–	IC50	> 1000 nM
C1=[N+]2CCCC[N+]3=Cc4ccc5[n]4[Au-]23[n]2c1ccc2-c1nc2ccccc2nc1-5.F[P-](F)(F)(F)(F)F	SF-268	NCI60 five-dose screen	–	–	–	TGI	5.63 -log M
O=C(C[Se]C(=O)c1cc2ccccc2[nH]1)Nc1cccc(C(F)(F)F)c1	NCI60 non-small-cell lung subpanel	cell growth	–	10 µM, 48 h, one-dose	–	mean growth percent	-84.2%
COc1ccccc1-c1ccncc1C(=O)Nc1nnc(OCc2ccc(Cl)cc2)s1	MDA-MB-231	–	–	1.5 µM, mean of 3 replicates	relative to: untreated	colony survival	90.6%
[Cl-].[Cl-].[Ru+2].c1ccc(-c2ccccn2)nc1.c1ccc(-c2ccccn2)nc1.c1ccc2cc3nc4c5cccnc5c5ncccc5c4nc3cc2c1	SK-MEL-28	cell growth, SRB	–	dark, normoxia	–	GI50	30200 nM
CC(C)Cc1ccc(C(C)C(=O)[Se]CC(=O)Nc2cccc(C(F)(F)F)c2)cc1 (centres unmarked)	NCI60 ovarian subpanel	total growth inhibition, inhibitor	–	five-dose	–	mean TGI	4010 nM
CC(C)c1ccc(N(C)c2ccc3c(c2)OCC[C@H]3CNc2cnccc2C(=O)O)cc1	RERF-LC-MS	cell viability, CellTiter-Glo	–	7 days	–	IC50	65.9 nM
CO[C@@H]1[C@@H](OC(N)=O)[C@@H](O)[C@H](Oc2ccc3c(O)c(NC(=O)c4ccc(O)c(CC=C(C)C)c4)c(=O)oc3c2C)OC1(C)C	DLD-1 parental	–	–	75 µM, replicate 1	–	colony count	58.5
Cc1ncsc1-c1ccc(C(C)NC(=O)C2CC(O)CN2C(=O)C(NC(=O)CCCCCCCCCCN2CCCC(Nc3ncc(Cl)c(Nc4ccccc4S(=O)(=O)C(C)C)n3)C2)C(C)(C)C)cc1 (centres unmarked)	22Rv1	RNA-seq, item: PEX11A mRNA	–	concentration not given	relative to: DMSO	log2 fold change	-1.32
CCOc1cncc(-c2ccc(NC(=O)C3(c4ccnc(NS(=O)(=O)C5CC5)n4)CCOCC3)nc2)n1	Daudi	cell growth or viability, ATP luminescence	–	72 h	–	IC50	111 nM
